{"data": "Experimental data pooled from the literature", "note": "Numbered parts are unrelated; each lists some results of a single study.", "sequence of UniProt P52333 (whole entry, looked up)": "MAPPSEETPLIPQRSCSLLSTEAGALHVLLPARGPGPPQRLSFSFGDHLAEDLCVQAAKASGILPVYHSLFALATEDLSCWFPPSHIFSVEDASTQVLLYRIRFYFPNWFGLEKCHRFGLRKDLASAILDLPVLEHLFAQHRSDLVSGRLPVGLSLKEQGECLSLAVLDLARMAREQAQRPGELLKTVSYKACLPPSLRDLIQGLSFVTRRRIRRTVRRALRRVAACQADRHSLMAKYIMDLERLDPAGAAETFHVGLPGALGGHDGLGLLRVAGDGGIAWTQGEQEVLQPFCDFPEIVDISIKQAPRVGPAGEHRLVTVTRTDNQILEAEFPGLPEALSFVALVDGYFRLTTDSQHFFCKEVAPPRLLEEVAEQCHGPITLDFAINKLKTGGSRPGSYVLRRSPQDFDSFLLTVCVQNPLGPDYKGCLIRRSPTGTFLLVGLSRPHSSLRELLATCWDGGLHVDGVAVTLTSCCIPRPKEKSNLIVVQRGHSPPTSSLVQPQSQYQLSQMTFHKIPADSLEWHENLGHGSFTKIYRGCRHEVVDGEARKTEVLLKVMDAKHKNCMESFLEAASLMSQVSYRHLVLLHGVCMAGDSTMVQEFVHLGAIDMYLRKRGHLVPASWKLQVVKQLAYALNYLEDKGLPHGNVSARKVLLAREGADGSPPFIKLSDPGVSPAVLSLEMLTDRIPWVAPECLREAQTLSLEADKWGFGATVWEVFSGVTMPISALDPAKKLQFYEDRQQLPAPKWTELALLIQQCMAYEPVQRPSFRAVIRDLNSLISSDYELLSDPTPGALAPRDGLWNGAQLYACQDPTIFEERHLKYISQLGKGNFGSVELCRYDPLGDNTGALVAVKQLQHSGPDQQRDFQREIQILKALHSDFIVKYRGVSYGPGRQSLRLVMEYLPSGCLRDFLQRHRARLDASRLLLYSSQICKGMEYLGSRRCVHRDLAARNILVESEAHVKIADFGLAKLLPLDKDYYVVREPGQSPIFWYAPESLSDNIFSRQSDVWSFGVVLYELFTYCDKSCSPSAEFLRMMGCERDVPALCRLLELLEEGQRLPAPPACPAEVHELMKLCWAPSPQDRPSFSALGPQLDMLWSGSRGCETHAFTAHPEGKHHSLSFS", "sequence of UniProt Q8N4C8 (whole entry, looked up)": "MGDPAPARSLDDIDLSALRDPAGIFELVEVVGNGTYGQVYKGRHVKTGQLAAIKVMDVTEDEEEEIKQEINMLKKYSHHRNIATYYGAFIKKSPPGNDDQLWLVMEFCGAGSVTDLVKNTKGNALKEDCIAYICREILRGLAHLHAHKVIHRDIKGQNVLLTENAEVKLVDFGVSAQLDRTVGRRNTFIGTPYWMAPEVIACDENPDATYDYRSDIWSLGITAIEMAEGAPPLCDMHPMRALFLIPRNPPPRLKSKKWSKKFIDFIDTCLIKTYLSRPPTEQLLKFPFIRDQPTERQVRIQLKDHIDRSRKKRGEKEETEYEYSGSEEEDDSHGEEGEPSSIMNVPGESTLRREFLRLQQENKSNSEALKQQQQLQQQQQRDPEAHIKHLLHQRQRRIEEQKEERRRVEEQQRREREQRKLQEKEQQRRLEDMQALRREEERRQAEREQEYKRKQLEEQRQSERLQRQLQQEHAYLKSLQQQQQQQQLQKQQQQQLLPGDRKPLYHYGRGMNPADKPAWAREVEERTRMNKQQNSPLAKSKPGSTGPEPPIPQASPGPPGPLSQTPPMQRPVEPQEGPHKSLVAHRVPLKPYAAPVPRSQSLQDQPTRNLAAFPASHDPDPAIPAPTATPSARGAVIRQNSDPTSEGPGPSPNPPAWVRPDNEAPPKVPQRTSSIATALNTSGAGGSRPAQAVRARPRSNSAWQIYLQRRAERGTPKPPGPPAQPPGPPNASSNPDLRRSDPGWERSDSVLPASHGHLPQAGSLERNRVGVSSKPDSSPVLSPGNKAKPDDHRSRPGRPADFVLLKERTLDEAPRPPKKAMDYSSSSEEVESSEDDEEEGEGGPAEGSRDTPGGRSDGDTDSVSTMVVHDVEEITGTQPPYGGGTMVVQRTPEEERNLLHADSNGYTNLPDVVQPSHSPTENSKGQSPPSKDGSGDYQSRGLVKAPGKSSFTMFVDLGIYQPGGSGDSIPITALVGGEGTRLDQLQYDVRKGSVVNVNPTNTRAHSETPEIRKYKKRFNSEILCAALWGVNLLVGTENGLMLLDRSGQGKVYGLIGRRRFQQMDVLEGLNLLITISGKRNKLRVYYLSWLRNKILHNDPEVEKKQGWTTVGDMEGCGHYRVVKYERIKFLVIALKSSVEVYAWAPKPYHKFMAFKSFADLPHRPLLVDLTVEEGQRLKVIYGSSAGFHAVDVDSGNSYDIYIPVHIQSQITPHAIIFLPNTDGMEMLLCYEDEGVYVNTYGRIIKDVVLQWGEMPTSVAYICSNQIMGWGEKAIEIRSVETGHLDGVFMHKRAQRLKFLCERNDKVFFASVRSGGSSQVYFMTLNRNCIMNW", "sequence of UniProt Q9UHD2 (whole entry, looked up)": "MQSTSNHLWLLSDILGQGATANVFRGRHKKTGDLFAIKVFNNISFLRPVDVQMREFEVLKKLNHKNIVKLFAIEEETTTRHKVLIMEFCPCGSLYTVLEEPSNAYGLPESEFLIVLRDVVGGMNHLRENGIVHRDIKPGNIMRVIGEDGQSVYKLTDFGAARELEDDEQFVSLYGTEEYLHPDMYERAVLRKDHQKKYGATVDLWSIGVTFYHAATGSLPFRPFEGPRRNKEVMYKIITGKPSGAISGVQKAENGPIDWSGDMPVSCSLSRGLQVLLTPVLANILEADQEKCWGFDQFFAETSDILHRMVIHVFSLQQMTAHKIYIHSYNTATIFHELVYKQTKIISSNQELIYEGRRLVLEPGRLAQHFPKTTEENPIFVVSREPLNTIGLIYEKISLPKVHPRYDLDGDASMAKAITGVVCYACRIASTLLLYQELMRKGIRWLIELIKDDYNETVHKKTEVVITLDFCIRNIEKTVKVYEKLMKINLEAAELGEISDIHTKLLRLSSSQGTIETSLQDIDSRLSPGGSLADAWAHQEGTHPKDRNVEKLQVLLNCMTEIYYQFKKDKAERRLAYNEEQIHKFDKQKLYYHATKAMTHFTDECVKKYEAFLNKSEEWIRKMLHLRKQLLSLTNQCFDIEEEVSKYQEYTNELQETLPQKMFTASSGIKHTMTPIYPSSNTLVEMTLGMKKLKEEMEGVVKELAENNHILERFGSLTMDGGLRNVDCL", "sequence of UniProt Q9Y2H1 (whole entry, looked up)": "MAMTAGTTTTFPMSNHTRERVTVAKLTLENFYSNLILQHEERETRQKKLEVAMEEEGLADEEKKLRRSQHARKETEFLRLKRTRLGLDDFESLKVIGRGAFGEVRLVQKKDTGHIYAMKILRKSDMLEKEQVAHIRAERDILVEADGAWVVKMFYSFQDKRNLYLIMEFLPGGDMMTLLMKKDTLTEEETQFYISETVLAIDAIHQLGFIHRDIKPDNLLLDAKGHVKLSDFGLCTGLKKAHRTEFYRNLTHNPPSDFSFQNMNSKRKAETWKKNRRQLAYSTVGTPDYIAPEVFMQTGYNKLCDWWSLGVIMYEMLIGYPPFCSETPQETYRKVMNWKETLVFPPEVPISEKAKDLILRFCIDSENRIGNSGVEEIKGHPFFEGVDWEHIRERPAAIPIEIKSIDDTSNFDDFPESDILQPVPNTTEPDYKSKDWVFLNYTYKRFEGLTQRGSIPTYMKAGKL", "sequence of UniProt Q99683 (whole entry, looked up)": "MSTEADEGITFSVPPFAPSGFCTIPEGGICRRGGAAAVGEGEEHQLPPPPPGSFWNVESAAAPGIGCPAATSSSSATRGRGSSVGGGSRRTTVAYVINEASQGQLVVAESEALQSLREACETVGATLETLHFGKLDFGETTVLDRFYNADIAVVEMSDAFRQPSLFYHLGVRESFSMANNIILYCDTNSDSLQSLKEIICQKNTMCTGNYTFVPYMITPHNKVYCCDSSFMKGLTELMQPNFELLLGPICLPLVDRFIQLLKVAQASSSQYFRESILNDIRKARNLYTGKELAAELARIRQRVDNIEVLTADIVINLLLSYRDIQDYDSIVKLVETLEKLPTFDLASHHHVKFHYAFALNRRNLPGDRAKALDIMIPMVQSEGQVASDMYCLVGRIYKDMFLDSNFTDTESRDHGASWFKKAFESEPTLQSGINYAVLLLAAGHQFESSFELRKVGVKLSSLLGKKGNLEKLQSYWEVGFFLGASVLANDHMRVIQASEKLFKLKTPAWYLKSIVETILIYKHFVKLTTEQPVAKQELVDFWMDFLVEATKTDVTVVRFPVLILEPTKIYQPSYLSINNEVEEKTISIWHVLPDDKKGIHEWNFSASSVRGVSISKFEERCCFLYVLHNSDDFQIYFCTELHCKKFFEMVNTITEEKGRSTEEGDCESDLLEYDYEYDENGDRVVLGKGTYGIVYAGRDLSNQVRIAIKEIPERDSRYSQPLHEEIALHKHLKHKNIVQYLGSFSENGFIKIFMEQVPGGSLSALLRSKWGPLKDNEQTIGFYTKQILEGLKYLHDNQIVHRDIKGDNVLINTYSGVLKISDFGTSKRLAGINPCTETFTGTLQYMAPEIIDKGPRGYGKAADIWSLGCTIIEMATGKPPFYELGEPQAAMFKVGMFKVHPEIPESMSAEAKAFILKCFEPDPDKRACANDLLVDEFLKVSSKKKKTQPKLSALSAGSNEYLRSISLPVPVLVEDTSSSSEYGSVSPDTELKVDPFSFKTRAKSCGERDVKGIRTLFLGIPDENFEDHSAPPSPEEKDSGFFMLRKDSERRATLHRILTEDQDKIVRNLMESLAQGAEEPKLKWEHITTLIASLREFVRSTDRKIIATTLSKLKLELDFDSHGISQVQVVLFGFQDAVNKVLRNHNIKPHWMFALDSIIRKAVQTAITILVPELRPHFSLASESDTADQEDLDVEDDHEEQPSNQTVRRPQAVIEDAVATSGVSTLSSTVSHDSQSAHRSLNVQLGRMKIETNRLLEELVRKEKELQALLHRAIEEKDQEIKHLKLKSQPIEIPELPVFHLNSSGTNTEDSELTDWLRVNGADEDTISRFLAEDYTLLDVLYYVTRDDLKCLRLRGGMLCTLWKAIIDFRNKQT"}
{"data": "Sample 1", "Structure (SMILES)": "CCC(=O)N[C@H]1CC[C@@H](C(=O)N(C)c2ccc(-c3nc4ccccc4o3)cc2)C1", "observed": "cell-free assay", "method": "competition with immobilised ligand", "tested at": "1 µM"}
{"target": "ALK (Homo sapiens, UniProt Q9UM73, L1196M)", "remaining binding [%]": 93}
{"target": "MINK1 (Homo sapiens, UniProt Q8N4C8)", "remaining binding [%]": 89}
{"target": "RIOK2 (Homo sapiens, UniProt Q9BVS4)", "remaining binding [%]": 84}
{"target": "STK10 (Homo sapiens, UniProt O94804)", "remaining binding [%]": 100}
{"target": "PIP4K2C (Homo sapiens, UniProt Q8TBX8)", "remaining binding [%]": 100}
{"target": "GRK4 (Homo sapiens, UniProt P32298)", "remaining binding [%]": 100}
{"target": "EPHB2 (Homo sapiens, UniProt P29323)", "remaining binding [%]": 100}
{"target": "MAP4K1 (Homo sapiens, UniProt Q92918)", "remaining binding [%]": 100}
{"target": "DSTYK (Homo sapiens, UniProt Q6XUX3)", "remaining binding [%]": 87}
{"target": "LATS2 (Homo sapiens, UniProt Q9NRM7)", "remaining binding [%]": 67}
{"target": "MAP3K12 (Homo sapiens, UniProt Q12852)", "remaining binding [%]": 100}
{"target": "STK38L (Homo sapiens, UniProt Q9Y2H1)", "remaining binding [%]": 79}
{"target": "Tyrosine-protein kinase ABL1, non-phosphorylated (ABL1, Homo sapiens, UniProt P00519, H396P)", "remaining binding [%]": 100}
{"target": "Tyrosine-protein kinase JAK3, JH1 (JAK3, Homo sapiens, UniProt P52333)", "remaining binding [%]": 100}
{"target": "PIK3CA (Homo sapiens, UniProt P42336, H1047Y)", "remaining binding [%]": 97}
{"data": "Sample 2", "host": "human", "matrix": "microsomes or S9", "tested at": "2 µM", "time": "0.5 h"}
{"Compound": "COc1ccc2c(/C=C3/C(=O)c4ccccc4S(=O)(=O)N3C)c[nH]c2c1", "remaining compound [%]": 40.1}
{"Compound": "NC(=O)c1c(-c2ccc(Cl)cc2Cl)csc1NC(=O)CC1(CC(=O)O)CCCC1", "remaining compound [%]": 57.3}
{"Compound": "CC(=O)O[C@@H]1CC2C(C)(CC[C@H](O)C2(C)C)C2CC[C@]3(C)C(=CC(=O)O[C@H]3c3ccoc3)C21C (stereo partly drawn)", "remaining compound [%]": 20.6}
{"Compound": "CN(CC(=O)Nc1nc2c(F)cc(F)cc2s1)S(C)(=O)=O", "remaining compound [%]": 46.7}
{"Compound": "COc1ccc([C@@H](C)C(=O)c2ccc(O)cc2O)cc1", "remaining compound [%]": 64.9}
{"Compound": "CCOc1cc(C(=O)OCc2cc(=O)n3oc(C)cc3n2)cc(OCC)c1OCC", "remaining compound [%]": 0.344}
{"Compound": "Cc1ncc(S(=O)(=O)NCCc2nccnc2C)s1", "remaining compound [%]": "> 100"}
{"data": "Sample 3", "Structure (SMILES)": "O=c1cc(-c2cccc3c2Sc2ccccc2S3)oc(N2CCOCC2)c1", "observed": "enzyme activity", "action": "inhibitor", "tested at": "0.5 µM", "reference": "control"}
{"target": "ULK2 (Homo sapiens, UniProt Q8IYT8)", "remaining activity [%]": 123}
{"target": "JAK3 (Homo sapiens, UniProt P52333)", "remaining activity [%]": 108}
{"target": "CSNK1G2 (Homo sapiens, UniProt P78368)", "remaining activity [%]": 93.3}
{"target": "MAP3K5 (Homo sapiens, UniProt Q99683)", "remaining activity [%]": 104}
{"target": "MAP3K14 (Homo sapiens, UniProt Q99558)", "remaining activity [%]": 94.9}
{"target": "MAPKAPK2 (Homo sapiens, UniProt P49137)", "remaining activity [%]": 94.2}
{"target": "TEK (Homo sapiens, UniProt Q02763)", "remaining activity [%]": 100}
{"target": "ABL2 (Homo sapiens, UniProt P42684)", "remaining activity [%]": 92}
{"target": "EPHA3 (Homo sapiens, UniProt P29320)", "remaining activity [%]": 119}
{"target": "TBK1 (Homo sapiens, UniProt Q9UHD2)", "remaining activity [%]": 88.5}
{"target": "CSNK1G3 (Homo sapiens, UniProt Q9Y6M4)", "remaining activity [%]": 87.9}
{"target": "NEK6 (Homo sapiens, UniProt Q9HC98)", "remaining activity [%]": 103}
{"target": "MAP2K2 (Homo sapiens, UniProt P36507)", "remaining activity [%]": 81.8}
{"target": "MAPK3 (Homo sapiens, UniProt P27361)", "remaining activity [%]": 118}
{"target": "MST1R (Homo sapiens, UniProt Q04912)", "remaining activity [%]": 111}
{"target": "FGFR1 (Homo sapiens, UniProt P11362)", "remaining activity [%]": 99.2}
{"target": "FGFR3 (Homo sapiens, UniProt P22607)", "remaining activity [%]": 94.7}
{"target": "GRK7 (Homo sapiens, UniProt Q8WTQ7)", "remaining activity [%]": 99.2}
{"target": "TAOK2 (Homo sapiens, UniProt Q9UL54)", "remaining activity [%]": 101}
{"target": "NEK1 (Homo sapiens, UniProt Q96PY6)", "remaining activity [%]": 100}
{"data": "Sample 4", "matrix": "hydrocarbon/water", "pH": "7.4"}
{"Structure (SMILES)": "CCC[C@@H]1NC(=O)[C@H](C)N(C)C(=O)[C@H](CC(C)C)NC(=O)Cn2cc(nn2)CN(C)C(=O)[C@H](CC(C)C)NC(=O)[C@H](C)N(C)C(=O)[C@H](CC(C)C)NC(=O)CN(CCC)C(=O)[C@H]2CCCN2C1=O", "logD": -0.401}
{"Structure (SMILES)": "CCC[C@@H]1NC(=O)CN(CCC)C(=O)[C@H](CC(C)C)NC(=O)Cn2cc(nn2)CN(C)C(=O)[C@H](CC(C)C)NC(=O)[C@H](C)N(C)C(=O)[C@H](CC2CCCCC2)NC(=O)[C@H](C)N(C)C(=O)[C@H]2CCCN2C1=O", "logD": 0.208}
{"Structure (SMILES)": "CC(C)C[C@@H]1NC(=O)[C@H](C)N(C)C(=O)[C@H](CC2CCCCC2)NC(=O)[C@H](CC(C)C)N(C)C(=O)[C@H]2CCCN2C(=O)[C@H](CC2CCCCC2)NC(=O)[C@H](C)N(C)C(=O)[C@H](CC(C)C)NC(=O)Cn2cc(nn2)CN(C)C1=O", "logD": 2.53}
{"Structure (SMILES)": "CCCN1CC(=O)N[C@@H](CC2CCCCC2)C(=O)N(C)[C@@H](C)C(=O)N[C@@H](CC(C)C)C(=O)N(C)Cc2cn(nn2)CC(=O)N[C@@H](CC(C)C)C(=O)N(C)[C@@H](C)C(=O)N[C@@H](CC2CCCCC2)C(=O)N2CCC[C@@H]2C1=O", "logD": 2.18}
{"Structure (SMILES)": "CC[C@H]1C(=O)N[C@@H](CC2CCCCC2)C(=O)N(C)[C@@H](C)C(=O)N[C@@H](CC(C)C)C(=O)N(C)Cc2cn(nn2)CC(=O)N[C@@H](CC(C)C)C(=O)N(C)[C@@H](C)C(=O)N[C@@H](CC(C)C)C(=O)N2CCC[C@@H]2C(=O)N1C", "logD": 1.32}
{"Structure (SMILES)": "CCCCCN1CC(=O)N[C@@H](Cc2ccccc2)C(=O)N2CCC[C@@H]2C(=O)N(C)[C@@H](CC(C)C)C(=O)N[C@@H](C)C(=O)N(Cc2ccc3c(c2)OCO3)CC(=O)N[C@@H](CC(C)C)C(=O)N2CCC[C@@H]2C(=O)N(C)[C@@H](CC(C)C)C(=O)N[C@@H](C)C1=O", "logD": 2.59}
{"note": "For quick reference, copied from above (sample 3):"}
{"target": "FGFR1 (Homo sapiens, UniProt P11362)", "remaining activity [%]": 99.2}
{"target": "NEK1 (Homo sapiens, UniProt Q96PY6)", "remaining activity [%]": 100}
{"target": "MAP3K5 (Homo sapiens, UniProt Q99683)", "remaining activity [%]": 104}
